Results collected from several papers.
Each numbered part is a random draw from the data of one study; scales do not carry over between parts. Values joined by “and” are separate records of one study, mostly repeats; a detail may differ. ± gives the spread as reported.
UniProt Q13555, sequence (whole entry, looked up): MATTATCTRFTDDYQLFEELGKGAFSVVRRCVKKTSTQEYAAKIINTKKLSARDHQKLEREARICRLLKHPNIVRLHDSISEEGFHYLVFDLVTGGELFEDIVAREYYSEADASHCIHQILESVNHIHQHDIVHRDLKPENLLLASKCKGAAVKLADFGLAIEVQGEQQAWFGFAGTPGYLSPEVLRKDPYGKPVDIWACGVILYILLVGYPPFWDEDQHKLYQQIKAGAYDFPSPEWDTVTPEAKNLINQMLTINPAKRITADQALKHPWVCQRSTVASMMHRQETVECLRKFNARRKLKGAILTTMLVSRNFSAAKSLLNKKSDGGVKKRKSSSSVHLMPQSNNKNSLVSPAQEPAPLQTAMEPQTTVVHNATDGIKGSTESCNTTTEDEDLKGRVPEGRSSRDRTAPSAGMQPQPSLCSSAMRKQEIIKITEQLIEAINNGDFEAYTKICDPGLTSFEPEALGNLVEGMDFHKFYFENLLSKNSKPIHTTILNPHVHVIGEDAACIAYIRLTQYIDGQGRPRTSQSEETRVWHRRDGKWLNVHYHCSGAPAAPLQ
UniProt Q99640, sequence (whole entry, looked up): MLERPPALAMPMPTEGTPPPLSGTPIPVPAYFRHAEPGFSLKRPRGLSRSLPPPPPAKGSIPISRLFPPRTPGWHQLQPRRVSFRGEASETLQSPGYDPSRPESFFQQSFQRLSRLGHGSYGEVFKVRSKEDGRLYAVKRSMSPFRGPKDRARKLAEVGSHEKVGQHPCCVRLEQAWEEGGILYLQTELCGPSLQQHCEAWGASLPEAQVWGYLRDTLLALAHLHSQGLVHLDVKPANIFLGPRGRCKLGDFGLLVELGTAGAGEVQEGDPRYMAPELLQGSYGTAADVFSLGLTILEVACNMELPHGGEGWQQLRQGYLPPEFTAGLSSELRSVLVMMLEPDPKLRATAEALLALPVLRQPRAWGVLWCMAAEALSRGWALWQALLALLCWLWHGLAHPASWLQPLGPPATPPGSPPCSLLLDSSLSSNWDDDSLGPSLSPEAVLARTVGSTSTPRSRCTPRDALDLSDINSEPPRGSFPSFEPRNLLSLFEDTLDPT
UniProt Q9P1W9, sequence (whole entry, looked up): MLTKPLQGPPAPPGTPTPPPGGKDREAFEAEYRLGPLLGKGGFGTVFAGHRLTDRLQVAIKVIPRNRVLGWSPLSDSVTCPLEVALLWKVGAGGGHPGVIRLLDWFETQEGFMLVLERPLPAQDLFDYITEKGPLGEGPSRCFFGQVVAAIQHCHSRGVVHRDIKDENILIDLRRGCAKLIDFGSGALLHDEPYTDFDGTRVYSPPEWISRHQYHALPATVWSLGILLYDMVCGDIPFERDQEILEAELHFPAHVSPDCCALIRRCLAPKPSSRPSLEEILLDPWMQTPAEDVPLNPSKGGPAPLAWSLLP

Study 1
Target: Sodium-dependent neutral amino acid transporter B(0)AT1 (SLC6A19, Homo sapiens, UniProt Q695T7)
UniProt Q695T7, sequence (whole entry, looked up): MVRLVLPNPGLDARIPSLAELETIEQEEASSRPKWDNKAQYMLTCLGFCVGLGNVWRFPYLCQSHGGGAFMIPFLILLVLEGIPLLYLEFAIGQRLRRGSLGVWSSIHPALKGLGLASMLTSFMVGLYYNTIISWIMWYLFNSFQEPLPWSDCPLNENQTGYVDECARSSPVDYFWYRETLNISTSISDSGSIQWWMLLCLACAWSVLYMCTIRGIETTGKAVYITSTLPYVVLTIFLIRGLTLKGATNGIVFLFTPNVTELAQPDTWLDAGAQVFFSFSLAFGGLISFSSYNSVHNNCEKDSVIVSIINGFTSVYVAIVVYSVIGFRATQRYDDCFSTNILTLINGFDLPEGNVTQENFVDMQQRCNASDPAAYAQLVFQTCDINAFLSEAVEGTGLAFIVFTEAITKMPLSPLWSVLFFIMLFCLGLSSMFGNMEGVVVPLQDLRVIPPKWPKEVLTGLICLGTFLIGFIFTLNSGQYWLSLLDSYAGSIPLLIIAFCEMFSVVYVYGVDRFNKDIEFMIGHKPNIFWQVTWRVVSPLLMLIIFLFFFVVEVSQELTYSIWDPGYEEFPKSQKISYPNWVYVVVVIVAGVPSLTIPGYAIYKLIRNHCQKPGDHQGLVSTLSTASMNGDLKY
Action: inhibitor
Method: FLIPR membrane potential
Cell line: CHO-BC
With: 1.5 mM L-leucine
SMILES | IC50 [µM]
CCCNC(=O)CNc1ccc(Br)c(C)c1 | 0.04 ± 0.003
Cc1cc(NCC(=O)NC(C)C)cc(C)c1Cl | 0.3 ± 0.03
CCNC(=O)COc1ccc(Br)c(C)c1 | 0.081 ± 0.006
CCNC(=O)CNc1ccc(I)c(C)c1 | 0.033 ± 0.005
CCCNC(=O)COc1cc(C)c(Cl)c(C)c1 | 3.4 ± 1.1
Cc1cc(NCC(=O)NC(C)C)ccc1I | 0.027 ± 0.005
Cc1cc(OCC(=O)NC(C)C)ccc1I | 0.23 ± 0.06
Cc1cc(NCC(=O)NC(C)C)ccc1Br | 0.09 ± 0.01
Cc1cc(NCC(=O)NC(C)C)cc(C)c1I | 0.099 ± 0.005
CCNC(=O)COc1cc(C)c(Cl)c(C)c1 | 0.62 ± 0.07
CCCNC(=O)COc1ccc(I)c(C)c1 | 0.043 ± 0.008

Study 2
SMILES: CC[C@@]1(c2cccc(-c3c(F)cncc3OC)c2)C2=C(Nc3n[nH]cc31)[C@H](F)C(C)(C)CC2=O (single isomer, unassigned)
Tested at: 1 µM
target | read-out | method | baseline | remaining binding [%]
EGFR (Homo sapiens, UniProt P00533, A750P/del747-749) | kinase binding | KINOMEscan | DMSO control | 100
PIM2 (Homo sapiens, UniProt Q9P1W9) | binding | competition with immobilised ligand | – | 98
BRSK2 (Homo sapiens, UniProt Q8IWQ3) | kinase binding | KINOMEscan | DMSO control | 92
CDK2 (Homo sapiens, UniProt P24941) | binding | competition with immobilised ligand | – | 2.2
MAP2K1 (Homo sapiens, UniProt Q02750) | kinase binding | KINOMEscan | DMSO control | 76
PIK3CA (Homo sapiens, UniProt P42336, E545A) | kinase binding | KINOMEscan | DMSO control | 72
WNK4 (Homo sapiens, UniProt Q96J92) | binding | competition with immobilised ligand | – | 89
STK24 (Homo sapiens, UniProt Q9Y6E0) | kinase binding | KINOMEscan | DMSO control | 100
SRC (Homo sapiens, UniProt P12931) | kinase binding | KINOMEscan | DMSO control | 94
PRKCI (Homo sapiens, UniProt P41743) | kinase binding | KINOMEscan | DMSO control | 78
PIK3C2B (Homo sapiens, UniProt O00750) | binding | competition with immobilised ligand | – | 70
ACVR1 (Homo sapiens, UniProt Q04771) | kinase binding | KINOMEscan | DMSO control | 100
LATS1 (Homo sapiens, UniProt O95835) | kinase binding | KINOMEscan | DMSO control | 100
SGK2 (Homo sapiens, UniProt Q9HBY8) | binding | competition with immobilised ligand | – | 100
CDKL2 (Homo sapiens, UniProt Q92772) | kinase binding | KINOMEscan | DMSO control | 90
CDKL5 (Homo sapiens, UniProt O76039) | kinase binding | KINOMEscan | DMSO control | 82
Tyrosine-protein kinase ABL1, phosphorylated (ABL1, Homo sapiens, UniProt P00519, Y253F) | binding | competition with immobilised ligand | – | 97
CAMK2G (Homo sapiens, UniProt Q13555) | binding | competition with immobilised ligand | – | 87

Study 3
Target: E3 ubiquitin-protein ligase NEDD4 (Homo sapiens, UniProt P46934)
Read-out: enzyme activity
Action: inhibitor
Method: TR-FRET
Tested at: 11 µM
Construct (P46934 938-1319, limits assumed): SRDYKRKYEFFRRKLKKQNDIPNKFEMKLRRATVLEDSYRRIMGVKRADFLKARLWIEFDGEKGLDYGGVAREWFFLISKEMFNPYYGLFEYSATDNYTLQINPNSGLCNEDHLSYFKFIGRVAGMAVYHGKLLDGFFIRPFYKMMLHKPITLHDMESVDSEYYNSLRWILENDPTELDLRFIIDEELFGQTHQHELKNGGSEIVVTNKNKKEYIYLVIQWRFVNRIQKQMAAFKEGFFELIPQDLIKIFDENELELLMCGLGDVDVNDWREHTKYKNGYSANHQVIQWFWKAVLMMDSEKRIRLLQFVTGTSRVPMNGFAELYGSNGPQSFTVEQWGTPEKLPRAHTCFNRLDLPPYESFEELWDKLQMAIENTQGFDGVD
Compound | inhibition
CN(C)C/C=C/C(=O)NCCCN1c2ccccc2CCc2ccc(Cl)cc21 | 16.2%
CN(C)C(=O)/C=C/CNCCCN1c2ccccc2CCc2ccc(Cl)cc21.Cl | 14.7%
CCOC(=O)/C=C/CNCCCN1c2ccccc2CCc2ccc(Cl)cc21 | 83.4%
C=CC(=O)NCCCN1c2ccccc2CCc2ccc(Cl)cc21 | < 10%
COC(=O)/C=C/C(=O)NCCCN1c2ccccc2CCc2ccc(Cl)cc21 | < 10%

Study 4
SMILES: C[C@@H]1CN(c2ccc(-c3cc(C(=O)NCCOCCOCCOCCOCCNC(=O)Cn4cc(-c5[nH]cc(C(=O)N[C@@H](CC(N)=O)c6ccc(F)c(Cl)c6)c5-c5ccc(Cl)cc5F)cn4)ccc3F)cc2NC(=O)c2c[nH]c(=O)cc2C(F)(F)F)C[C@H](C)N1C
Read-out: thermal unfolding
Method: differential scanning fluorimetry
Tested at: 5.5 µM
Direction: higher = more unfolded
WDR5: WD repeat-containing protein 5 (WDR5, Homo sapiens, UniProt P61964)
DCAF1: DDB1- and CUL4-associated factor 1 (DCAF1, Homo sapiens, UniProt Q9Y4B6)
UniProt Q9Y4B6, sequence (whole entry, looked up): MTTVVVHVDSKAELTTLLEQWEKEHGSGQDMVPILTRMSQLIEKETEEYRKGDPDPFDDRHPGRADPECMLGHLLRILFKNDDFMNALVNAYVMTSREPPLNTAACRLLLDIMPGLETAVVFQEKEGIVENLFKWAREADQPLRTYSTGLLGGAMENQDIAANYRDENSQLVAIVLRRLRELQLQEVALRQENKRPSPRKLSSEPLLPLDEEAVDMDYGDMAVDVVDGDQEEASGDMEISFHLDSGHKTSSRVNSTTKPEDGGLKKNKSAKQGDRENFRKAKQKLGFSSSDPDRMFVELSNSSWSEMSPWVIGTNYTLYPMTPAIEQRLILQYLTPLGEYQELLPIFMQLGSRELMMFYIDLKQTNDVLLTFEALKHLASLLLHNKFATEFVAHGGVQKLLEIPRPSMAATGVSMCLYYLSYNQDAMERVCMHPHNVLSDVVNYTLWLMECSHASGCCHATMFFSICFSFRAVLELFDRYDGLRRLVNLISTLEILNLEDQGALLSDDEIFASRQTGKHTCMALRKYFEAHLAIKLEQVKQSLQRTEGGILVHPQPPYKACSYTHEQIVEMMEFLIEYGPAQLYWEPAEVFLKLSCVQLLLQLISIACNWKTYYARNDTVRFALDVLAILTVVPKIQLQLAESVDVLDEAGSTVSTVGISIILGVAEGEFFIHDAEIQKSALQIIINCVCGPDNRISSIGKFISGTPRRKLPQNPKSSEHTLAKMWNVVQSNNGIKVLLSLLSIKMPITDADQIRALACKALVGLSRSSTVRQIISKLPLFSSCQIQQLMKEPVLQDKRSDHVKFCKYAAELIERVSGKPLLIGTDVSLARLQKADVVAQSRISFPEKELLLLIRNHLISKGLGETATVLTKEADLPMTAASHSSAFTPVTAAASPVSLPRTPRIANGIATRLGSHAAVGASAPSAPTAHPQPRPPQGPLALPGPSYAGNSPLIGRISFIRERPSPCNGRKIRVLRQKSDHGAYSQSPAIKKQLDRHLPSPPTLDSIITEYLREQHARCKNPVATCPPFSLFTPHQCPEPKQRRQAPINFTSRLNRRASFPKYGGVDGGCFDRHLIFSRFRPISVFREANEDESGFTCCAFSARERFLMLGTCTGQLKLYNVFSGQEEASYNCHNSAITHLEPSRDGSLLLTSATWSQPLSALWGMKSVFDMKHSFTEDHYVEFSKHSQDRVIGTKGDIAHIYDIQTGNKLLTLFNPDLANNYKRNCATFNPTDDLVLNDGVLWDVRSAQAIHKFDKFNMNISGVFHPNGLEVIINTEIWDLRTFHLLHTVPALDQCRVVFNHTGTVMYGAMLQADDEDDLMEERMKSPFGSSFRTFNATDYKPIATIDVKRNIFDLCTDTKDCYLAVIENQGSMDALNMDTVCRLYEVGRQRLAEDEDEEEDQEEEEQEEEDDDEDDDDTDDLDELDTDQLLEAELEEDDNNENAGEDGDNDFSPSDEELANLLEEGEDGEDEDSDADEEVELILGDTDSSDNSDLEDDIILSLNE
target | temperature | SYPRO Orange fluorescence [a.u.]
WDR5 | 91.41 °C | 42000
DCAF1 | 38.8 °C | 9870
WDR5 | 67.41 °C | 6990
WDR5 | 71.21 °C | 7250
WDR5 | 54.21 °C | 14000
DCAF1 | 40.4 °C | 10500
WDR5 | 52.2 °C | 14400
DCAF1 | 83.01 °C | 41700
WDR5 | 31.4 °C | 14800
DCAF1 | 89.21 °C | 35900
WDR5 | 36.2 °C | 14200

Study 5
SMILES: Cc1ncsc1-c1ccc(C(CO)NC(=O)C2CC(O)CN2C(=O)C(C(C)C)n2cc(-c3ccc(COc4c(-c5c(C)c(F)cc6[nH]ncc56)c(C5CC5)cc5c(N6CC7CC6CN7)nc(OC6CCOCC6)nc45)cc3)nn2)cc1 (centres unmarked)
Time: 6 days
cell line | read-out | method | tested at | baseline | viability
HCT-116 | cell growth or viability | ATP luminescence | 0.1 µM | – | 78.3% and 82.9% and 80.3% and 88.9%
A-375 | cell growth or viability | ATP luminescence | 10 µM | – | 89.1% and 93.6% and 94.3% and 87.9%
BXPC-3 | cell growth or viability | ATP luminescence | 1 nM | – | 102% and 95% and 108% and 91.3%
COLO 320 | cell growth or viability | ATP luminescence | 0.1 µM | – | 85.7% and 105% and 86.9% and 87.3%
NCI-H1299 | cell growth or viability | ATP luminescence | 1 nM | – | 120% and 108% and 136% and 112%
NCI-H1299 | cell growth or viability | ATP luminescence | 1 µM | – | 106% and 86.9% and 117% and 107%
NCI-H1299 | cell growth or viability | ATP luminescence | 0.1 µM | – | 111% and 92.8% and 119% and 107%
COLO 320 | cell growth or viability | ATP luminescence | 0.3 µM | – | 94.9% and 104% and 84.1% and 101%
AsPC-1 | – | CellTiter-Glo | 3 nM | DMSO | 94.7% and 93.7% and 88.8%
COLO 320 | cell growth or viability | ATP luminescence | 1 nM | – | 82.2% and 86.7% and 84.9% and 93.4%

Study 6
SMILES: CCN1/C(=C/C=C2\CCCC(/C=C/C3=[N+](CC)c4ccccc4C3(C)C)=C2NCCCCCCCCN2CCC(Nc3nc4ccccc4n3Cc3ccc(F)cc3)CC2)C(C)(C)c2ccccc21
Cell line: U-87 MG
Tested at: concentration not given
Baseline: DMSO
refers to | log2 fold change
ATP8B3 mRNA | -1.6
PKN3 mRNA | -1.63
TBX2 mRNA | -1.21
RORA mRNA | 1.16
SC5D mRNA | 0.924
ARHGAP42 mRNA | -0.99
PAQR4 mRNA | -1.82
CGB3 mRNA | -2.78
GPATCH2 mRNA | 0.806
RBM39 mRNA | 0.913
ARL14EP mRNA | 1.01
RDH5 mRNA | -1.85

Study 7
SMILES: COCC1CC2C(CCC3C(O)CCC32)c2ccc(O)cc21 (centres unmarked)
cell line | method | refers to | tested at | baseline | mRNA level ratio
A549 | DNA microarray | ACTB | 25 µM | untreated cells | 1.02 and 1.03 and 1.05
SK-OV-3 | DNA microarray | TMEM108 | 100 µM | untreated cells | 1.06
A549 | DNA microarray | GAPDH | 25 µM | untreated cells | 0.814 and 0.823 and 0.816
SK-OV-3 | DNA microarray | GINS1 | 100 µM | untreated cells | 0.789
A549 | DNA microarray | KIF20A | 100 µM | untreated cells | 0.824 and 0.853 and 0.832 and 0.841 and 0.844
A549 | microarray | MCM6 | 25 µM | untreated | 1.05
SK-OV-3 | microarray | PIF1 | 100 µM | untreated | 0.978
SK-OV-3 | microarray | RFC3 | 25 µM | untreated | 1.34
PANC-1 | microarray | MCM6 | 25 µM | untreated | 1.52
A549 | DNA microarray | ACTB | 100 µM | untreated cells | 0.808 and 0.823 and 0.811 and 0.825 and 0.849
A549 | microarray | RFC3 | 100 µM | untreated | 0.967
A549 | microarray | SPC25 | 25 µM | untreated | 0.841
SK-OV-3 | DNA microarray | MCM10 | 100 µM | untreated cells | 0.732
PANC-1 | DNA microarray | MCM7 | 25 µM | untreated cells | 1.11
PANC-1 | microarray | PIF1 | 100 µM | untreated | 1.44
PANC-1 | DNA microarray | ACTB | 100 µM | untreated cells | 0.525 and 0.515 and 0.489 and 0.51
PANC-1 | microarray | AURKA | 25 µM | untreated | 1.51
PANC-1 | DNA microarray | TMEM108 | 25 µM | untreated cells | 2.02
SK-OV-3 | DNA microarray | MCM7 | 25 µM | untreated cells | 1.01
A549 | DNA microarray | C6 | 100 µM | untreated cells | 165
SK-OV-3 | microarray | AURKA | 25 µM | untreated | 1.01

Study 8
SMILES: NC/C(=C\F)COc1ccc(Cn2c(=S)[nH]c(=O)c3[nH]cnc32)cc1
Read-out: enzyme activity
MPO: Myeloperoxidase (MPO, Homo sapiens, UniProt P05164)
UniProt P05164, sequence (whole entry, looked up): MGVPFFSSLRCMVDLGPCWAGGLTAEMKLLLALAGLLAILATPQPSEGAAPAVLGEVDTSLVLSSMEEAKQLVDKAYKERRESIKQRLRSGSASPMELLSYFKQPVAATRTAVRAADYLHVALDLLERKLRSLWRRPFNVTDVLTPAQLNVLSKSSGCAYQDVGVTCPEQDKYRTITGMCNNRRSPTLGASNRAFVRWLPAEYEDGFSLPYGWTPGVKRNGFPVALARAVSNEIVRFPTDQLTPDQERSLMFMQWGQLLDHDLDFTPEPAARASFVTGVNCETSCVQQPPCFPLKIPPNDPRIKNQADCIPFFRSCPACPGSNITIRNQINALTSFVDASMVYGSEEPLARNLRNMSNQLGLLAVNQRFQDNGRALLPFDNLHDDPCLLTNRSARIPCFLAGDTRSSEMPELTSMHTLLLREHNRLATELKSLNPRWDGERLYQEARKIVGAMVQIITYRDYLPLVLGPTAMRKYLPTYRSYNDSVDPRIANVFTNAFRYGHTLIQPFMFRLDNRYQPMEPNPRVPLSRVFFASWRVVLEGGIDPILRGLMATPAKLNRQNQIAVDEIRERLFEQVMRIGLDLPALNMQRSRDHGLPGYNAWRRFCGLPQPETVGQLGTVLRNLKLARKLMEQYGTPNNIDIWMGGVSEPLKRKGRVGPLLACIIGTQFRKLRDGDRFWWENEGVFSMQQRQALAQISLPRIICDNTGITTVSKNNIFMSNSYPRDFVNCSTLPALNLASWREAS
AOC3: Amine oxidase [copper-containing] 3 (AOC3, Homo sapiens, UniProt Q16853)
UniProt Q16853, sequence (whole entry, looked up): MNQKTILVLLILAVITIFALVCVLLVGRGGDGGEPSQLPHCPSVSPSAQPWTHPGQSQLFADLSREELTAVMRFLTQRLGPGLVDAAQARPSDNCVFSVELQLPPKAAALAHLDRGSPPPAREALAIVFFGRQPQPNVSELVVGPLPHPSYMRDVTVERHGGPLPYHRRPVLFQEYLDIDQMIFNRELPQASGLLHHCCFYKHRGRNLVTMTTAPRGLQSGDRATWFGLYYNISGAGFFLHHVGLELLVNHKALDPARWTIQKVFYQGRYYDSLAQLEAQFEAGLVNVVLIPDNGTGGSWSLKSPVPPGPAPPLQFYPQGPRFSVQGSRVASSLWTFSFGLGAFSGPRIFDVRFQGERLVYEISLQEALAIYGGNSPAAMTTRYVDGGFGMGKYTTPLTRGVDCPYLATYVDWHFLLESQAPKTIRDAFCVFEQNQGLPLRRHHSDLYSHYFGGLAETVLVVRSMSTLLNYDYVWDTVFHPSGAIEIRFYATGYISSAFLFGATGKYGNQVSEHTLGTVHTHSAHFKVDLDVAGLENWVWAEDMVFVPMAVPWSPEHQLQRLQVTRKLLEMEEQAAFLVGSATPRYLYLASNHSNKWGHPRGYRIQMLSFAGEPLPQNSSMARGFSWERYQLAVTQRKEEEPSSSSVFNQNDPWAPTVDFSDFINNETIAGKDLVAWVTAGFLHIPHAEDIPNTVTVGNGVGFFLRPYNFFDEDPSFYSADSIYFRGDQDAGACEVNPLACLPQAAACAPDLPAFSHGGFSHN
target | action | method | tested at | inhibition
MPO | – | – | 3.704 µM | 16.7% and 12.3%
MPO | inhibitor | fluorescence | 4.6 nM | -5.47%
AOC3 | inhibitor | fluorescence | 0.1235 µM | 100%
MPO | – | – | 11.11 µM | 25.9% and 28.9%
MPO | inhibitor | fluorescence | 3.333 µM | 11.6%
AOC3 | inhibitor | fluorescence | 0.1111 µM | 104%

Mixed results
Compound | tested on | test | setting | scale | measurement | value
Cc1ccc(O)c(C)c1-c1cnc2[nH]c(-c3cnc(N4CCC(CN5CCN(c6ccc(NC7CCC(=O)NC7=O)cc6F)CC5)CC4)nc3)cc2c1C#N (centres unmarked) | Caco-2 | bidirectional permeability | 2 µM, 2 h, pH 7.4 | baseline: B-A over A-B | efflux ratio | 12.4
Cc1ccc(O)c(C)c1-c1cnc2[nH]c(-c3cnc(N4CCC5(CC4)CC(N4CCN(c6ccc(N[C@H]7CCC(=O)NC7=O)cc6F)CC4)CO5)nc3)cc2c1C#N (single isomer, unassigned) | HCT-116 | refers to: phospho-MEK | – | baseline: pMEK EC50 over pCDK1 IC50 | selectivity ratio | 16 fold
Cc1ccc(O)c(C)c1-c1cnc2[nH]c(-c3cnc(N4CCC5(CC4)CC(N4CCN(c6ccc(N[C@H]7CCC(=O)N(C)C7=O)cc6F)CC4)CO5)nc3)cc2c1C#N (single isomer, unassigned) | PKMYT1 (Homo sapiens, UniProt Q99640) | kinase activity, inhibitor, ADP-Glo | – | – | IC50 | 0.0085 µM
Cc1ccc(O)c(C)c1-c1cnc2[nH]c(-c3cnc(N4CCC(CN5CCN(c6ccc7c(c6)C(=O)N(C6CCC(=O)NC6=O)C7=O)CC5)CC4)nc3)cc2c1C#N (centres unmarked) | HCC1569 | CDK1 Thr14 phosphorylation, in-cell western | 1000.00 nM | lower = stronger inhibition | phospho-CDK1 (Thr14) level | 110 a.u.

A few entries again (study 4):
target | temperature | SYPRO Orange fluorescence [a.u.]
WDR5 | 71.21 °C | 7250
WDR5 | 54.21 °C | 14000
DCAF1 | 40.4 °C | 10500
WDR5 | 52.2 °C | 14400
DCAF1 | 83.01 °C | 41700
WDR5 | 31.4 °C | 14800
DCAF1 | 89.21 °C | 35900
